Results collected from several papers.
Numbered parts are unrelated; each lists some results of a single study. Changes are numbered by the printed parent chain.

Block 1 — target: CCNF, cyclin fold, Cln2 fusion (human); technique: yeast growth competition, sequencing; matrix: yeast; setting: strong parent motif; reference: not given; direction: higher = stronger binding
Parent: SAMHD1 docking peptide (human); ASKSRVQLFKDDP
Variant | normalised enrichment score
L8P | 0.00941
D12R | 0.757
R5K | 0.89
F9K | -0.338
K3H | 1.61
K10Q | 0.428
F9R | 0.102
K3Y | 1.54
D12I | 1.52
K10T | 0.58
K10Y | -0.00419
F9L | 0.196
Q7A | 0.262
Q7S | 0.313
D12K | 0.98
L8E | -0.0324
S4P | 2.36
L8N | 0.366
R5I | 0.577
R5M | 0.0186
Q7E | 0.171
V6A | -0.208
S2M | 1.69
F9A | -0.161
S2H | 1.98

Block 2 — technique: protein-binding microarray; molecule type: double-stranded DNA, one strand shown; matrix: in vitro; concentration: 250 nM; setting: 60-bp whole probe; with: salmon DNA 0.4 mg/ml; reference: random background probes; direction: higher = stronger binding; shared flanks, not repeated: GCCTAGCAC … GTCTTGATTCGCTTGACGCTGCTG
Target: Interferon regulatory factor 7, full length, phosphomimetic (IRF7, Homo sapiens, UniProt Q92985, residues 1-503, S101K/S471D/S472D/S475D/S476D/S477D/S483D/S484D/S487D)
Construct (chain): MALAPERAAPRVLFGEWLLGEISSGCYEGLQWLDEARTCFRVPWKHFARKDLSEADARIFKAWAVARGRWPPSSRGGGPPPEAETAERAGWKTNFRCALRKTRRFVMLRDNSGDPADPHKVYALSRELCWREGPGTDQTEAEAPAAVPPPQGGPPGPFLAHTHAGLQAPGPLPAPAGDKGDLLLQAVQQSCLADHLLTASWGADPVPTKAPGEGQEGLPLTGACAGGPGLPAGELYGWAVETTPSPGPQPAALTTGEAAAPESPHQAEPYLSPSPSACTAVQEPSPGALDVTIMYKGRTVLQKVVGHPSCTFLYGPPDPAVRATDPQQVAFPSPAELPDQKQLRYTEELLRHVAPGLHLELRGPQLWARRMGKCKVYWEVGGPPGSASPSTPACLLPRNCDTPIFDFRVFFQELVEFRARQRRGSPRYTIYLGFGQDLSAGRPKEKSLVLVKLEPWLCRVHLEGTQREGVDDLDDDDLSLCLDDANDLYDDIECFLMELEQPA
Oligonucleotide | log fluorescence [z-score]
TTAGATATCAGTCTCGATCAGTGCTAG | 0.285
TCATTTCTAATTTACTTACTGTGCTAG | 1.86
CTAGGACTGCTACTGCTTTAGTGCTAG | -0.457
AATGATTACATATATGTTGGTGTGCTA | 0.0326
GACGATTTCGGGTATCGAGAGGTGCTA | 0.851
GACGGTCTCGGCATCGGGACGTGCTAG | -0.139
TTAGGTTCCGGTGTCGGTTAGTGCTAG | 1.02
TTAGATTTCGGGACCGGATTAGTGCTA | 0.882
GACGGTATCGACGCTGGGGACGTGCTA | -0.481
GACGGTTTAGGTTTCGGGACGTGCTAG | 3.52
GACGGTATCCTTCTCCTGAAGTGCTAG | 0.0017
GACTGTCTCGGTCTCGGGACGTGCTAG | 0.658
TCATATGTCATTTACATACTGTGCTAG | 0.938
TTAGGACTGCTTCTCCTCTAGTGCTAG | 0.482
ACTCGTTTACATTTTCCAAAGTGCTAG | 1.86
GACGGTTTTGACACTGGGGACGTGCTA | 0.26
TGCCCCCACACTCCTAGCACGTGCTAG | 0.0827
GACGTTATCAGTTTCGAGACGTGCTAG | 3.82
GTGAGTCCCGAGAATGGTGTGGTGCTA | -0.66
TCACTTCTCCTCTAGGTTACTGTGCTA | 1.09
CTCGCTATGTTGTCCAGGCTGGTGCTA | -0.317
GACGATATCGGTTTCGGGACGTGCTAG | 3.43
TTGCATCGTAAGCAAAAATGGTGCTAG | -0.341
TCATTTTTCTAATTTACACTGTGCTAG | 1.98
CCAACACTCGGTTTCCAAATGTGCTAG | 3.96

Block 3 — technique: RNA Bind-n-Seq; molecule type: RNA; matrix: in vitro; concentration: not given; setting: RNA with constant flanks, ends assumed; reference: input RNA pool; direction: higher = stronger binding
Target: RING finger protein unkempt homolog, zinc fingers 1-6, GST-SBP tag (UNK, Homo sapiens, UniProt Q9C0B0, residues 30-357)
UniProt Q9C0B0, sequence (30-357, looked up): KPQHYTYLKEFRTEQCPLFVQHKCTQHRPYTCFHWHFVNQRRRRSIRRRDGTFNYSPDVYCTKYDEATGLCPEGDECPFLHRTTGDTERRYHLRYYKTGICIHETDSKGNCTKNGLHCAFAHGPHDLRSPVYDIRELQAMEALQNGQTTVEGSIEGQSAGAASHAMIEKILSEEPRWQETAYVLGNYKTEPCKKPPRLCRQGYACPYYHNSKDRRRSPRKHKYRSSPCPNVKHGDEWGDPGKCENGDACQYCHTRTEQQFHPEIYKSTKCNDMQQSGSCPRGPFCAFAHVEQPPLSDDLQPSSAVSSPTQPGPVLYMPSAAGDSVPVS
Shared flanks, not repeated: GGGAGUUCUACAGUCCGACGAUC … CAACAGAGGAUUGAGCAUCA
Oligonucleotide | bound/input enrichment
GAGAUAAUGGCCUCAGCUGCUAAGGAAUUUAAAAUGGACAACUUUUCACCUAAAGCUGGCACCCGCAAAUUGCAGCAGACAGUACCAGCUGAUGCGUCUCCUGAUUCUAAGUGUCCUAUA | 0.185 ratio
UUGGGGUAACGUGCACUGUAAGACGUAUGUAACAUGAUGUUAACUUUGUGGUCUAAAGUGUUCCGCUGUCAAGCCGGAUGCCUAAGUAGACCAAAUCUUGUUAUUGAAGUGUUCUGAGCU | 0.189 ratio
UUAUUUUCUAAAAAUUGUUACAUGCAAAUUUAAACCAAGAUUUAUCAGUAAAAGAAAAAAACCGAAUCCUUAAUAAUGUAAAUGUUGUUAUAUAUGCUACCCUGGUGAAAAUAUUUUUAU | 0.897 ratio
GACUUUUGUGUAAAGUAAUGCAUGCAAUCUUGUAAUGUGGCCUGAAAACAAGCUAACUGUAUCCGAAACUAUUCAAAAACUAGGUAUUUUUAGUGACCUGUAGGCAGUGGCAAAUACAGA | 1.44 ratio
AAUGAGGCCUCACCCCUGGACCCCAUUACUGAGGAAGAUGAGAAAUCCGACCAGUCAGGCCGUAAGCUGCUCCCAGGCAAGAAGUCUUCAGAACGGCCUAGUCUCUUCCAGACAGACUUG | 0.112 ratio
AAAGUGGACUAUGGCGAGUACAUGGAUAAAAACAAUGUGAGGCGGCAAGCAACAACAAUCACCGCUGAUAACAUUAUAUUUCUGAGUGACCAGACAAAAGAAAAGGCAUAGAACGGAUGA | 0.392 ratio
UAUCACAUACACAUAAAAAAGGGAAGAAAUUCGGCAGUGAAUGAAGAUUCCUCUGCAUUUCCGCAUUGCUUUUUCUACUGUAGUUGGCUUUUGAAUGAGGAUGACAAUGGAAGAGAUGAA | 0.351 ratio

Block 4 — technique: DHFR PCA, deep sequencing; matrix: yeast; with: (+)-ABA 17 µM; reference: wild-type fitted maximum; direction: higher = stronger binding
Target: ABI1, truncated, D143A, DHFR fusion (Arabidopsis thaliana)
Setting: methotrexate growth selection, single substitutions
Parent: PYL1, truncated, DHFR fusion (Arabidopsis thaliana); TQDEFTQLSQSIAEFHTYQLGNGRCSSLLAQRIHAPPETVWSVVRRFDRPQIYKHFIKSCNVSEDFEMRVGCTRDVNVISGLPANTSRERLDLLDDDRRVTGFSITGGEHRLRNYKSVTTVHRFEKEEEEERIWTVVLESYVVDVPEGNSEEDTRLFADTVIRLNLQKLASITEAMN; partner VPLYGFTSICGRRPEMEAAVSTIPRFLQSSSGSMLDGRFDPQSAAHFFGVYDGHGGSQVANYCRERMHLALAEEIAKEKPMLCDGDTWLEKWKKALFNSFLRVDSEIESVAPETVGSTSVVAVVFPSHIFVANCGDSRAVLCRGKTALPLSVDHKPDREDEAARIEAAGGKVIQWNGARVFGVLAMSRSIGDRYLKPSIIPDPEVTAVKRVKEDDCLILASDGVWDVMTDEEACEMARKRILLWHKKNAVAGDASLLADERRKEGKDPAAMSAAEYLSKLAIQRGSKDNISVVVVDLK
Variant | relative binding score
Y115W | 19.6%
C72P | 1.1%
L8G | 8.27%
T119S | 22.6%
R46G | 38.6%
V121S | 10.9%
S140T | -4.97%
F103K | -23.4%
A175M | 85.2%
C25W | -8.18%
S171K | 94.3%
V142R | 63.3%
K54S | -9.09%
V43K | 7.29%
Y53A | 1.13%
N177C | 99.7%
M68R | 32.1%
S9T | 79.6%

Block 5 — technique: RNA Bind-n-Seq; molecule type: RNA; matrix: in vitro; concentration: 1 µM; setting: whole 134-nt RNA, ends assumed; with: 150 mM KCl; reference: input library; direction: higher = stronger binding
Target: Ras GTPase-activating protein-binding protein 1, C-terminal RGG region (G3BP1, Homo sapiens, UniProt Q13283)
UniProt Q13283, sequence (whole entry, looked up): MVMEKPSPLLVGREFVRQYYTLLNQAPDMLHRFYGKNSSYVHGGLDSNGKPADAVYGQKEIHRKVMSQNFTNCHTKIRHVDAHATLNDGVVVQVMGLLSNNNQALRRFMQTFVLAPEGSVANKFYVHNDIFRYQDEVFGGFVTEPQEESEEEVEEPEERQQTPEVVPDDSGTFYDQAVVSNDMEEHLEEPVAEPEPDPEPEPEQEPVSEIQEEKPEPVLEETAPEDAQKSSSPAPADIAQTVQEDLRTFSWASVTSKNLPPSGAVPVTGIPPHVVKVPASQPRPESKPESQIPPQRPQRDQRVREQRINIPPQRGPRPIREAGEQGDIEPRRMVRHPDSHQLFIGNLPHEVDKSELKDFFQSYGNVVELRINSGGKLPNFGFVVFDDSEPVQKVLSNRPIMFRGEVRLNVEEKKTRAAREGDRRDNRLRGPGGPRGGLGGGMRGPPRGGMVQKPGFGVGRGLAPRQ
Shared flanks, not repeated: GGGAGUUCUACAGUCCGACGAUC … UGGAAUUCUCGGGUGUCAAGG
Oligonucleotide | log2 enrichment
CCUGUGCUACACAUCGUAUGUACCGAAUCGGGGUUUUUUUGGUUUUUUUGGUUUUUUUGGAAAGUAUUAUGUUACGCCGUUCGGAUCUGC | -1.51
ACCAUGCAGGUGGGCAUCUUUGGGAAGUGGGCCAAGGGGGGGAUAGGGAGGGGGGUAACACUUUGGGAACAGGUGGUCCCAGGUCGUUUC | -0.884
UGUCUCGAGCAGGGGACAAGACGUUCGAGGAGUACCUGGAUGAGUAUUACCGGCUGGACUACGAGGACAUCAUCGACGACCUGCCCUGUC | -1.25
UCAAGUCCUGUGCUACACAUCGUAUGUACCGAAUCGGGGUUGGGUUGGUUGGGGAAAGUAUUAUGUUACGCCGUUCGGAUCUGCACUUCC | 0.757
CUUUGGUUGACAGGAAGUUCCUUUUCCAGGCAGGUCCCGUUGCCACCUCCUGCUCACUCAGUCCCGGGCUCUGCCGAGUGGUCCUGGGAA | 0.587
CUGUGCUACACAUCGUAUGUACCGAAUCGGGGUUUUUUGGGUUUUUUGGGGUUUUUUGGGGAAAGUAUUAUGUUACGCCGUUCGGAUCUG | -0.912
CUGUGCUACACAUCGUAUGUACCGAAUCGGGGAAAAAGGGGAAAAAGGGGAAAAAAAGGGGAAAGUAUUAUGUUACGCCGUUCGGAUCUG | -0.144
ACCAUGCAGGUGGGCAUCUUUGUGAAGUGGGGCAAGGGGGGGAUAGGGAGGGGGGUAACACUUUGGGAACAGGUGGUCCCAGGUCGUUUC | -0.87
UGUGGACGACAAUGAGGAGACCAUCAAAAAGCGGCUGGAGACCUAUUACAAGGCCACAGAACCUGUCAUCGCCUUCUAUGAGAAACGUGG | -1.16
UGGCCCUGGUGGCAUGCGGGGAGGAAGAGGUGGCCUCAUGGAUCGUGGUGGUCCCGGUGGAAUGUUCAGAGGUGGCCGUAGUGGAGACAG | 3.29
CACAGACAACACGCACCCACACAGACACAGAGGGAAGGGGUUGAAAUGGGGACAGGGUGCACAGCAGGGCGGGGUAGGACCCCAGCCCCU | -0.139
UGGGAGGUGGAUUUUGUGUAUUUUUUUAGCUCAUUUCCAGGGGUGGGAAUUUUUUUUUAAUAUGUGUCAUGAAUAAAGUUGUUUUUGAAA | 3.29
UUUGAGGUCAAACGCCGCGGGGAACUGCAGCUGAUUAAGAUCUUCCAAUCCUCGGUGUUUGAGGCCUUCCUCAAGGGCAGCACGCUGGAA | -1.75
AAGUCCUGUGCUACACAUCGUAUGUACCGAAUCGGUUUGGUUUUUGGAAAAAAAGGAAAGUAUUAUGUUACGCCGUUCGGAUCUGCACUU | -1.73

Mixed results
Molecule | target | test | test system | conditions | how to read | endpoint | value
PhoQ, residues 284 288 289 292 302 303 STVVAA | PhoP, residues 12 14 15 18 19 NQGLL (Escherichia coli, UniProt P23836) | Sort-seq, refers to: YFP reporter | E. coli | PhoQ-PhoP variant library, with: 10 µM Mg2+ | reference: high Mg2+ state, higher = stronger signaling | fold induction | 2.11

Excerpt of the above (block 4):
Variant | relative binding score
S140T | -4.97%
F103K | -23.4%
A175M | 85.2%
C25W | -8.18%
S171K | 94.3%
V142R | 63.3%
K54S | -9.09%
V43K | 7.29%
Y53A | 1.13%
